{"data": "Measured values of several laboratories", "note": "Parts stem from different laboratories: compare values within a part only.", "chain of UniProt P11362 (whole entry, looked up)": "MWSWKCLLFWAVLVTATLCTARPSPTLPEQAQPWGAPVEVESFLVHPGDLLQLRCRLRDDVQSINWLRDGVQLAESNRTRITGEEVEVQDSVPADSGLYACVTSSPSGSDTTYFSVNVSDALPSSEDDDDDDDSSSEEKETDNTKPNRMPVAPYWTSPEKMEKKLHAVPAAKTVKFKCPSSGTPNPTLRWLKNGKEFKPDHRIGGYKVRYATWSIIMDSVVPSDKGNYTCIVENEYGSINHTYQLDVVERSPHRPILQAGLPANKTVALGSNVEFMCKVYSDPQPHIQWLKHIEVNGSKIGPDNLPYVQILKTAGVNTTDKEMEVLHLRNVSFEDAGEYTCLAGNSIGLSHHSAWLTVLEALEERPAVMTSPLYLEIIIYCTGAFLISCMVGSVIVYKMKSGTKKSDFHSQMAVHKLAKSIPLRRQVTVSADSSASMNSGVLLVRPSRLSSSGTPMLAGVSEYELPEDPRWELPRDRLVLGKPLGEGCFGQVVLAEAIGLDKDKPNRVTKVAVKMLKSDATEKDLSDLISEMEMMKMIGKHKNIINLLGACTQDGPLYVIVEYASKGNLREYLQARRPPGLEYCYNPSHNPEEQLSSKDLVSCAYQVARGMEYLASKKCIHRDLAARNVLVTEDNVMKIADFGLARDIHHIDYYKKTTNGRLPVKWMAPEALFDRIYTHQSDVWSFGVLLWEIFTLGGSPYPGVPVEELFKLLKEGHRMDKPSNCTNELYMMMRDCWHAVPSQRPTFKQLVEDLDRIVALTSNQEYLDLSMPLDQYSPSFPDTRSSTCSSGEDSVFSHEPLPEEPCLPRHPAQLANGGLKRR", "chain of UniProt Q96PY6 (whole entry, looked up)": "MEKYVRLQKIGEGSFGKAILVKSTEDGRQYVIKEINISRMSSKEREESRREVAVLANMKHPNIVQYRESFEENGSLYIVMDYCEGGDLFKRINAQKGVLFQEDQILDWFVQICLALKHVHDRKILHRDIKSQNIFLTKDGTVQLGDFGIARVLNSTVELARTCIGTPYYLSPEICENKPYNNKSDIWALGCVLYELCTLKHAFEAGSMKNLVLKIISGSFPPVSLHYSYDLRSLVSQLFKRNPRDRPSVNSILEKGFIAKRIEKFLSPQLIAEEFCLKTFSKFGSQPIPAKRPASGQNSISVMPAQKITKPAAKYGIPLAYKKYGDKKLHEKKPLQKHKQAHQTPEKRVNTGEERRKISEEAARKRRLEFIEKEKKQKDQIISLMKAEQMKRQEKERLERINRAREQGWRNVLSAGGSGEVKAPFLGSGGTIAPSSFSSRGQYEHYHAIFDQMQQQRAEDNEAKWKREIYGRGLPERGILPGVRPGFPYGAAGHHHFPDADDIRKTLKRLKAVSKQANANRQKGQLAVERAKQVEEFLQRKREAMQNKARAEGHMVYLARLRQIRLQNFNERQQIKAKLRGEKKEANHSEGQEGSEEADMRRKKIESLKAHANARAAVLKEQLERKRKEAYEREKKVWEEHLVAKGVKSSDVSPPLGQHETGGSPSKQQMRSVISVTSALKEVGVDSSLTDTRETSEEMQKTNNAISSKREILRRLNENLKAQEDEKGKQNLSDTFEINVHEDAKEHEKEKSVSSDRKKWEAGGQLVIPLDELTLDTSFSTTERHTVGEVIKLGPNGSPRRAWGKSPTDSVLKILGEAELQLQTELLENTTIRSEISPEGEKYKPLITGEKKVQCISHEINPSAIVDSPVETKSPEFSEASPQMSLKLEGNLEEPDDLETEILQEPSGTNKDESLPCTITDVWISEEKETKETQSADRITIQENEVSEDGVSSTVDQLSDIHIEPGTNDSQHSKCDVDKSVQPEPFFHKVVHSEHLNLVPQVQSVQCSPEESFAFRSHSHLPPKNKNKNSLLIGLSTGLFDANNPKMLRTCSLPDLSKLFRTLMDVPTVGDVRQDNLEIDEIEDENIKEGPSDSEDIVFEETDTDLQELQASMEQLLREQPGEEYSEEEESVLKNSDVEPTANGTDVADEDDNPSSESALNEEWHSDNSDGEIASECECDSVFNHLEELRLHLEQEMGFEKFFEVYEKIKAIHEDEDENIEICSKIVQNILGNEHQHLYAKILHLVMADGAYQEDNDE", "chain of UniProt P49841 (whole entry, looked up)": "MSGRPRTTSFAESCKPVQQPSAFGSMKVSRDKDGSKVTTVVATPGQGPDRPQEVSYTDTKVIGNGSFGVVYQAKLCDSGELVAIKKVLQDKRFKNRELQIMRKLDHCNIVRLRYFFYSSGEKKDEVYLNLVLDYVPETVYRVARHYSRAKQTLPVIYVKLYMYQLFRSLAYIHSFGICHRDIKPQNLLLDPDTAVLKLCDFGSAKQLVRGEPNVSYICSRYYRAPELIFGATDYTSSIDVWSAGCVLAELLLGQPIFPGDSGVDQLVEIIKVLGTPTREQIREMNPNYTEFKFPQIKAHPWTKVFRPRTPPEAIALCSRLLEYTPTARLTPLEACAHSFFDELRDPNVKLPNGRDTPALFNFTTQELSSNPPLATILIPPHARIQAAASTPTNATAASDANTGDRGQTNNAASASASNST", "chain of UniProt P52333 (whole entry, looked up)": "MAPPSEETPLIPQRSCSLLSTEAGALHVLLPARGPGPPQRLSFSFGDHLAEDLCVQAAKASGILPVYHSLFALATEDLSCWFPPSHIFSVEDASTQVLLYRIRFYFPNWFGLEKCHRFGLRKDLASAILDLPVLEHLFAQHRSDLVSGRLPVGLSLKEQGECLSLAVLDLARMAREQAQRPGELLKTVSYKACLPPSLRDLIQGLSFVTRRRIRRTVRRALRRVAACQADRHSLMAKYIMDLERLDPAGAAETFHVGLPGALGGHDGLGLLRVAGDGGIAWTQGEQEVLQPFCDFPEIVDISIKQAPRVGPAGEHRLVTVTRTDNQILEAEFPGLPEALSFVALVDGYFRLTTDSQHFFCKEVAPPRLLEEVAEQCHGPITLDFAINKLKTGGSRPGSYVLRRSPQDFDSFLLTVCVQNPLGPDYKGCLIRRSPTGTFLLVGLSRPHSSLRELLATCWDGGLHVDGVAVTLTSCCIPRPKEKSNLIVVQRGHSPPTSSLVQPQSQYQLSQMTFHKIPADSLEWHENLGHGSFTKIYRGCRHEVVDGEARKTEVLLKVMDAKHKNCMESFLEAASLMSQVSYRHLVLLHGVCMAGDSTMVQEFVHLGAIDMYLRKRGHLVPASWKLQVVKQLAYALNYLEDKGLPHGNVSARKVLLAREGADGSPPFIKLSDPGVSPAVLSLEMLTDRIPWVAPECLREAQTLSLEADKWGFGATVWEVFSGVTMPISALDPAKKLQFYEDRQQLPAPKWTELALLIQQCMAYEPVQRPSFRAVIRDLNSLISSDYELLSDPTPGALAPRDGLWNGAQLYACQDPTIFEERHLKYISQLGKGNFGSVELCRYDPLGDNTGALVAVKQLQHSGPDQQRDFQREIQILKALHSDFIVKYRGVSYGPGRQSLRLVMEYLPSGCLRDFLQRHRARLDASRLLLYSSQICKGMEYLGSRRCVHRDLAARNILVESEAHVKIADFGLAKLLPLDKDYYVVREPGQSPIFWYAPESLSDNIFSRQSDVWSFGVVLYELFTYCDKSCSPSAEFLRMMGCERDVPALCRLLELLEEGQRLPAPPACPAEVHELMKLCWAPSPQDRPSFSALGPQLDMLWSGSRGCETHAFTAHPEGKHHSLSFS", "chain of UniProt P49137 (whole entry, looked up)": "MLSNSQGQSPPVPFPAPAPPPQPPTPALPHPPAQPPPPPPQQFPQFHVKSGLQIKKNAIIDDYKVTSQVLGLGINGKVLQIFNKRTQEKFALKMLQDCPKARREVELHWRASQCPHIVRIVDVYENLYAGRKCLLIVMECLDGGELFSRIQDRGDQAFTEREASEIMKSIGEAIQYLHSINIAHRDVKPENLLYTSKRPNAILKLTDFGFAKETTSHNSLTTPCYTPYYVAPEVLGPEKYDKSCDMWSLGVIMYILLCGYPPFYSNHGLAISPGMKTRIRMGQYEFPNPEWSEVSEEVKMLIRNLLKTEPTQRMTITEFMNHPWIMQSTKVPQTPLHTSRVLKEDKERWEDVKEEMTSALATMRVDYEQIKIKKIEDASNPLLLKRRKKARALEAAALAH", "chain of UniProt P36507 (whole entry, looked up)": "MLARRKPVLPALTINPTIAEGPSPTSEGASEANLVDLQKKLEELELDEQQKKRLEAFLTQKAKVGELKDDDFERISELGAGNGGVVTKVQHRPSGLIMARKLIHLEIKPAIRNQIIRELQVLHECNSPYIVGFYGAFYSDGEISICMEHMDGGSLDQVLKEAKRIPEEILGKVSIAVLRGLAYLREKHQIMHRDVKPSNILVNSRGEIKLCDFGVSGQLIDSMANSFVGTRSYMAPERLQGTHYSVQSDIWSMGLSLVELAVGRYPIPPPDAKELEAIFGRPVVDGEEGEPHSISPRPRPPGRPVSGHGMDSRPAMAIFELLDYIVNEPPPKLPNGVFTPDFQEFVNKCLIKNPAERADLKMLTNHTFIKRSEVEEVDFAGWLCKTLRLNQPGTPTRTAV", "chain of UniProt P06239 (whole entry, looked up)": "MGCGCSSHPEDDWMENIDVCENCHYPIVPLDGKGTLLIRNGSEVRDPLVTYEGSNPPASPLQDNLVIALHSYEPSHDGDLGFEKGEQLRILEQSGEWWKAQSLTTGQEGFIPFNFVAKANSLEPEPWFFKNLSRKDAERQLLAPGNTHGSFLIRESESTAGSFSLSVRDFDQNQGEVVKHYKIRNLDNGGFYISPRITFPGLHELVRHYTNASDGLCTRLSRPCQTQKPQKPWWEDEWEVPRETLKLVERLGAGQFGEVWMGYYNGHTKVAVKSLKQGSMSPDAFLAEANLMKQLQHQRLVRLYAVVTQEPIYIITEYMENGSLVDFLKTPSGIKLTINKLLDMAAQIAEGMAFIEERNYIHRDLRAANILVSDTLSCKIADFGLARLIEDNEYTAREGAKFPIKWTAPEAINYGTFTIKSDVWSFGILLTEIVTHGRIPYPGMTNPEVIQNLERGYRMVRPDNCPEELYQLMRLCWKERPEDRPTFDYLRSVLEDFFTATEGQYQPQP"}
{"data": "Sample 1", "Compound": "CC(C)n1cnc(-c2ccc(F)cc2)c1-c1ncc(C(=O)Nc2ccc(N3CCN(C)CC3)cc2)[nH]1", "technique": "Phase 2a trial", "species": "idiopathic pulmonary fibrosis patients"}
{"test": "measured: neutrophil count increased", "setting": "30 mg once daily, grade 5 maximum intensity", "patients with adverse events": "0%"}
{"test": "measured: urinary tract infection", "setting": "30 mg once daily, grade 5 maximum intensity", "patients with adverse events": "0%"}
{"test": "measured: blood creatine phosphokinase increased", "setting": "30 mg once daily, grade 5 maximum intensity", "patients with adverse events": "0%"}
{"test": "measured: gamma-glutamyltransferase increased", "setting": "dose not given, grade 1 maximum intensity, all arms", "patients with adverse events": "0%"}
{"data": "Sample 2", "cell line": "HaCaT", "concentration": "100 µM", "time": "36 h"}
{"Compound": "C=CC(=O)Nc1cccc(Nc2nc(Nc3ccc(N4CCN(C(C)=O)CC4)cc3OC)ncc2C(F)(F)F)c1", "viability": "5.96%"}
{"Compound": "COc1ccc(C[C@@H]2c3cc(OC)c(OC)cc3CC[N@+]2(C)CCC(=O)OCCCCCOC(=O)CC[N@@+]2(C)CCc3cc(OC)c(OC)cc3[C@H]2Cc2ccc(OC)c(OC)c2)cc1OC", "viability": "13.7%"}
{"Compound": "CC[C@H]1OC(=O)[C@H](C)[C@@H](O[C@H]2C[C@@](C)(OC)[C@@H](O)[C@H](C)O2)[C@H](C)[C@@H](O[C@@H]2O[C@H](C)C[C@H](N(C)C)[C@H]2O)[C@](C)(O)C[C@@H](C)CN(C)[C@H](C)[C@@H](O)[C@]1(C)O", "viability": "75.7%"}
{"Compound": "C[C@@H]1CN(c2c(F)c(N)c3c(=O)c(C(=O)O)cn(C4CC4)c3c2F)C[C@H](C)N1", "viability": "86.6%"}
{"data": "Sample 3", "SMILES": "Nc1nc(Nc2ccc(S(N)(=O)=O)cc2)nn1C(=S)Nc1c(F)cccc1F", "effect on": "enzyme activity", "action": "inhibitor", "concentration": "0.5 µM", "baseline": "control"}
{"target": "Dual specificity mitogen-activated protein kinase kinase 2 (MAP2K2, Homo sapiens, UniProt P36507)", "remaining activity [%]": 96.6}
{"target": "Serine/threonine-protein kinase TAO2 (TAOK2, Homo sapiens, UniProt Q9UL54)", "remaining activity [%]": 11.4}
{"target": "Glycogen synthase kinase-3 beta (GSK3B, Homo sapiens, UniProt P49841)", "remaining activity [%]": 9.03}
{"target": "Serine/threonine-protein kinase Nek1 (NEK1, Homo sapiens, UniProt Q96PY6)", "remaining activity [%]": 6.11}
{"target": "Tyrosine-protein kinase JAK3 (JAK3, Homo sapiens, UniProt P52333)", "remaining activity [%]": 5.21}
{"target": "Rhodopsin kinase GRK7 (GRK7, Homo sapiens, UniProt Q8WTQ7)", "remaining activity [%]": 96.6}
{"target": "MAP kinase-activated protein kinase 2 (MAPKAPK2, Homo sapiens, UniProt P49137)", "remaining activity [%]": 91.1}
{"target": "Tyrosine-protein kinase Lck (LCK, Homo sapiens, UniProt P06239)", "remaining activity [%]": 23.6}
{"target": "Ephrin type-A receptor 3 (EPHA3, Homo sapiens, UniProt P29320)", "remaining activity [%]": 85.9}
{"target": "Activin receptor type-1B (ACVR1B, Homo sapiens, UniProt P36896)", "remaining activity [%]": 92.2}
{"target": "Mitogen-activated protein kinase 3 (MAPK3, Homo sapiens, UniProt P27361)", "remaining activity [%]": 78.9}
{"target": "Macrophage-stimulating protein receptor (MST1R, Homo sapiens, UniProt Q04912)", "remaining activity [%]": 56}
{"target": "Fibroblast growth factor receptor 3 (FGFR3, Homo sapiens, UniProt P22607)", "remaining activity [%]": 4.96}
{"target": "Fibroblast growth factor receptor 1 (FGFR1, Homo sapiens, UniProt P11362)", "remaining activity [%]": 6.59}
{"data": "Sample 4", "Compound": "CS(=O)(=O)NCC[C@H](NC(=O)c1cncc2c1cnn2-c1ccc(F)cc1)c1ccnc(S(C)(=O)=O)c1", "effect on": "cell-free assay", "technique": "competition with immobilised ligand", "concentration": "1 µM"}
{"target": "Casein kinase I isoform delta (CSNK1D, Homo sapiens, UniProt P48730)", "remaining binding [%]": 100}
{"target": "Mitogen-activated protein kinase kinase kinase 15 (MAP3K15, Homo sapiens, UniProt Q6ZN16)", "remaining binding [%]": 100}
{"target": "LIM domain kinase 2 (LIMK2, Homo sapiens, UniProt P53671)", "remaining binding [%]": 100}
{"target": "Serine/threonine-protein kinase haspin (HASPIN, Homo sapiens, UniProt Q8TF76)", "remaining binding [%]": 100}
{"data": "Sample 5", "species": "human", "sample": "microsomes or S9", "concentration": "2 µM", "time": "0.5 h"}
{"SMILES": "CON(C)C(=O)c1cc(C(C)C)nc2c1c(C)nn2C(C)(C)C", "remaining compound [%]": 9.54}
{"SMILES": "CNC(=O)c1cc(Cl)cc(C)c1NC(=O)c1ncc2cccn2c1-c1cnccc1Br", "remaining compound [%]": 40.7}
{"SMILES": "Cc1c(Br)cc(S(=O)(=O)Nc2nnn(C)c2C)cc1C(=O)O", "remaining compound [%]": "> 100"}
{"SMILES": "Fc1ccc2nc(-c3ccc4c(c3)OCO4)c3nn[nH]c3c2c1", "remaining compound [%]": 25.2}
{"note": "Excerpt of the above (sample 3):"}
{"target": "Serine/threonine-protein kinase Nek1 (NEK1, Homo sapiens, UniProt Q96PY6)", "remaining activity [%]": 6.11}
{"target": "Tyrosine-protein kinase JAK3 (JAK3, Homo sapiens, UniProt P52333)", "remaining activity [%]": 5.21}
